Experimental data from different studies.
Protocols differ between the studies behind these lines. ± marks the error that the study gave.

COc1ccc(C(=O)CCc2cc(C(CCc3ccc(O)cc3OC)c3ccc(O)cc3)c(O)cc2OC)cc1 (racemic)
DHA level (human blood; 0.3 µM, with: A23187): 127000 ± 36400 pg/mL

CNS(=O)(=O)Nc1nccc(Cc2c(C)c3ccc(Oc4ncccc4F)cc3oc2=O)c1F
IC50 (NCI-H1563; cell viability; 7 days): 0.83 µM

CN1CCCNC(=O)c2cccc(c2)C(=O)NCCCN(C)CCCNc2cccc3c2C(=O)c2cccc(c2C3=O)NCCC1
log2 fold change (SAS; RNA-Seq, measured: SRSF5 mRNA; 1 µM, 6 h; baseline: untreated cells): -0.844

COc1cc(O)ccc1CCC(c1ccc(O)cc1)c1cc2c(c(C)c1O)OC(c1ccc(O)cc1)CC2 (mixture of isomers)
amount (measured: 12-HEPE; human whole blood; 0.3 µM, with: Escherichia coli): 2800 ± 1400 pg/mL blood

Nc1ncc(-c2cc(-c3cnn(CC(F)(F)F)c3)ncc2F)nc1C(=O)NC1CNCC(F)C1 (stereo not drawn)
remaining binding (MEK4; KINOMEscan; 1 µM; baseline: DMSO control): 100%

C[n+]1cccc2cc(/C=N/NC(=O)N/N=C/c3ccc4c(ccc[n+]4C)c3)ccc21
ΔTm (myc22 MYC G4-DNA parallel; FRET melting; 1 µM, K1 buffer, DNA 0.2 µM): 5.8 ± 0.3 °C

CCN(CC)CC(=O)Nc1cccc(-n2cc(-c3ccc4ccc(-c5cn(-c6cccc(NC(=O)CN(CC)CC)c6)nn5)cc4c3)nn2)c1
fold regulation (RCC4; PCR angiogenesis array, measured: PTGS1; 5 x IC50, 2 h, normoxia; baseline: untreated): 1.04

O=C(N/N=C/c1ccc(C[n+]2ccccc2)cc1)c1cccc(C(=O)N/N=C/c2ccc(C[n+]3ccccc3)cc2)n1
ΔTm (myc22 MYC G4-DNA parallel; FRET melting; 1 µM, K1 buffer, DNA 0.2 µM, with: ds26 10 µM): 8.4 ± 0.6 °C

Cc1ncsc1-c1ccc(C(C)NC(=O)C2CC(O)CN2C(=O)C(NC(=O)CCCCCCCCCCN2CCCC(Nc3ncc(Cl)c(Nc4ccccc4S(=O)(=O)C(C)C)n3)C2)C(C)(C)C)cc1 (stereo not drawn)
log2 fold change (22Rv1; RNA-seq, measured: SPSB1 mRNA; concentration not given; baseline: DMSO): -1.9

O=C(N/N=C/c1ccc2c(ccc[n+]2Cc2ccccc2)c1)C(=O)N/N=C/c1ccc2c(ccc[n+]2Cc2ccccc2)c1
ΔTm (myc22 MYC G4-DNA parallel; FRET melting; 1 µM, K1 buffer, DNA 0.2 µM): 5 ± 0.5 °C

C=C(NC(=O)c1csc(-c2nc3c(cc2O)-c2nc(cs2)C(=O)NC(C(C)O)C(=O)NC(=C(C)OC)c2nc(cs2)C(=O)NC2c4nc(cs4)C(=O)NC(COC(=O)c4c5c6c(cccc6n4O)COC(=O)C(OC4CC(C)(O)C(N(C)C)C(C)O4)C2OC5)c2nc-3cs2)n1)C(N)=O (stereo not drawn)
lung bacterial load (Streptococcus pneumoniae; -4, immunocompromised mice, lung; 16 mg/kg/day once daily, 24 h post-dose): 4.38 log10 CFU/lung

C[n+]1ccc(/C=N/NC(=O)c2ccc3ccc(C(=O)N/N=C/c4cc[n+](C)c5ccccc45)nc3n2)c2ccccc21
ΔTm (myc22 MYC G4-DNA parallel; FRET melting; 1 µM, K1 buffer, DNA 0.2 µM): 23.1 ± 0.4 °C

C=CC(=O)Nc1cccc(Cn2ncc3cnc(Nc4cnn(CCOC)c4)nc32)c1
percent of control (CAMK2B human; binding, KINOMEscan; 100 nM; lower = stronger binding): 99%

COC1CN([C@H]2CC[C@H]([C@@]3(C)Oc4c(Cl)cc(C(=O)NCc5c(SC)cc(C)[nH]c5=O)c(C)c4O3)CC2)C1
log2 fold change (RNA-seq, measured: IGSF3; human, whole blood; dose not given, 24 h; baseline: pretreatment baseline): 4.9

C[n+]1ccc(/C=N/NC(=O)c2cccc(C(=O)N/N=C/c3cc[n+](C)c4ccccc34)c2)c2ccccc21
ΔTm (myc22 MYC G4-DNA parallel; FRET melting; 1 µM, K1 buffer, DNA 0.2 µM): 12.5 ± 0.3 °C

Repeated from above:
COc1ccc(C(=O)CCc2cc(C(CCc3ccc(O)cc3OC)c3ccc(O)cc3)c(O)cc2OC)cc1 (racemic)
DHA level (human blood; 0.3 µM, with: A23187): 127000 ± 36400 pg/mL

CNS(=O)(=O)Nc1nccc(Cc2c(C)c3ccc(Oc4ncccc4F)cc3oc2=O)c1F
IC50 (NCI-H1563; cell viability; 7 days): 0.83 µM
